Results pooled from the literature.
Lines come from different studies, so protocols differ. “And” joins repeats or separate records; there may be more than shown. Numbers after ± are the reported error.
UniProt Q08881, sequence (whole entry, looked up): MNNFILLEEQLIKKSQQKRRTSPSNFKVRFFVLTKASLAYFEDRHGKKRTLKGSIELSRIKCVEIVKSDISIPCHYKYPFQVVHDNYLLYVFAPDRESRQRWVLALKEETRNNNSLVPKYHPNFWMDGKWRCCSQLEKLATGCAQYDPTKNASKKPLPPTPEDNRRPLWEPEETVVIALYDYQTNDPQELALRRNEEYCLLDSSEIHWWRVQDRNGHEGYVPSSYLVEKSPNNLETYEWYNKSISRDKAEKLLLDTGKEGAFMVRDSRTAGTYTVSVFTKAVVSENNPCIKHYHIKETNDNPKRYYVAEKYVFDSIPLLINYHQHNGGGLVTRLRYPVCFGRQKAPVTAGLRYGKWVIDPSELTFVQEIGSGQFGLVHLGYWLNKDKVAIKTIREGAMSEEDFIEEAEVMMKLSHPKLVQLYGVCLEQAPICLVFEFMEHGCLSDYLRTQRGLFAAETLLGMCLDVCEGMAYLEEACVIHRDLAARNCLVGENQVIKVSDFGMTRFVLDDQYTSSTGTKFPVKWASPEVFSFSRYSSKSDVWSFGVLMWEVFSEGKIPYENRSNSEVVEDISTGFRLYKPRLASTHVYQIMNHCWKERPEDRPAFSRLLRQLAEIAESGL

Structure (SMILES)	target or system	assay	system	conditions	scale	endpoint	result
CN1CCCNC(=O)c2cccc(c2)C(=O)NCCCN(C)CCCNc2cccc3c2C(=O)c2cccc(c2C3=O)NCCC1	HEK293	cell growth or viability, CCK-8	–	50 nM, 48 h	–	viability	98.7%
CC[C@H](C)NCC(SS(=O)(=O)O)c1ccccc1 (stereo partly drawn)	Schistosoma mansoni	perfusion day 57	infected Swiss Webster mice	100 mg/kg	–	body weight	33.2 g and 34.5 g and 31 g
Cc1ncsc1-c1ccc(C(C)NC(=O)C2CC(O)CN2C(=O)C(NC(=O)CCCCCCCCCCN2CCCC(Nc3ncc(Cl)c(Nc4ccccc4S(=O)(=O)C(C)C)n3)C2)C(C)(C)C)cc1 (stereo not drawn)	22Rv1	RNA-seq, item: ZNF334 mRNA	–	concentration not given	relative to: DMSO	log2 fold change	-3.16
CNS(=O)(=O)Nc1nccc(Cc2c(C)c3ccc(Oc4ncccc4F)cc3oc2=O)c1F	SW 1116	cell viability	–	7 days	–	IC50	14.5 nM
C=C(NC(=O)c1csc(-c2nc3c(cc2O)-c2nc(cs2)C(=O)NC(C(C)O)C(=O)NC(=C(C)OC)c2nc(cs2)C(=O)NC2c4nc(cs4)C(=O)NC(COC(=O)c4c5c6c(cccc6n4O)COC(=O)C(OC4CC(C)(O)C(N(C)C)C(C)O4)C2OC5)c2nc-3cs2)n1)C(N)=O (stereo not drawn)	–	–	female Sprague-Dawley rat, plasma	intravenous, 6 mg/kg, single dose, infusion	–	Cmax	5240 ng/mL
CC(C)Cc1ccc(C(C)C(=O)N[C@@H](CCCCNC(=O)CCOCCOCCOCCOCCOCCOCCNC(=O)CN2CCN(CC(=O)[O-])CCN(CC(=O)[O-])CCN(CC(=O)[O-])CC2)C(=O)Nc2cccc3c(C(=O)NCC(=O)N4CC(F)(F)C[C@H]4C#N)ccnc23)cc1.[177Lu+3] (stereo partly drawn)	U-87 MG tumour model	–	host not given, blood	1 h, tumour-bearing	–	tracer uptake	14 %ID/g
COC1CN([C@H]2CC[C@H]([C@@]3(C)Oc4c(Cl)cc(C(=O)NCc5c(SC)cc(C)[nH]c5=O)c(C)c4O3)CC2)C1	–	RNA-seq, item: SEPTIN8 mouse homolog	mouse, HT-1376 xenograft, whole blood	dose not given	relative to: vehicle	log2 fold change	0.451
O=C1C2CC3CC1CC(C(=O)N1CCN(c4ccc([N+](=O)[O-])c5ncccc45)CC1)(C3)C2	Salmonella typhimurium	Ames test	TA1535	0.78 µg/well, without S9	relative to: vehicle	revertant fold increase	1.5
C=C1CC[C@H](OCCCNC(=O)CCOCCOCCOCCOCCOCCOCCOCCOCCOCCOCCOCCOCCOCCOCCOCCOCCOCCOCCOCCOCCOCCOCCOCCOCCOCCOCCOCCOCCOCCOCCOCCOCCOCCOCCOCCOCCNC(=O)CCN2C(=O)CC(SC[C@H](NC(=O)[C@H](Cc3ccccc3)NC(=O)[C@H](CC(N)=O)NC(=O)[C@H](Cc3c[nH]cn3)NC(=O)[C@@H](NC(=O)[C@H](CC(=O)O)NC(=O)[C@H](CCC(N)=O)NC(=O)[C@H](CC(C)C)NC(=O)[C@H](CCCCN)NC(=O)[C@H](CCCCN)NC(=O)[C@H](CCCNC(=N)N)NC(=O)[C@H](CC(C)C)NC(=O)[C@H](Cc3c[nH]c4ccccc34)NC(=O)[C@H](CCC(=O)O)NC(=O)[C@@H](NC(=O)[C@H](CCCNC(=N)N)NC(=O)[C@H](CCC(=O)O)NC(=O)[C@H](CCSC)NC(=O)[C@H](CO)NC(=O)[C@H](CC(N)=O)NC(=O)[C@H](CC(C)C)NC(=O)[C@H](Cc3c[nH]cn3)NC(=O)[C@H](CCCCN)NC(=O)CNC(=O)[C@H](CC(C)C)NC(=O)[C@H](CC(N)=O)NC(=O)[C@H](Cc3c[nH]cn3)NC(=O)[C@H](CCSC)NC(=O)[C@H](CC(C)C)NC(=O)[C@H](CCC(N)=O)NC(=O)[C@@H](NC(=O)[C@H](CCC(=O)O)NC(=O)[C@H](CO)NC(=O)[C@@H](NC(=O)[C@@H](N)CO)C(C)C)[C@@H](C)CC)C(C)C)C(C)C)C(=O)O)C2=O)C/C1=C/C=C1\CCC[C@]2(C)[C@@H]([C@H](C)CCCC(C)(C)O)CC[C@@H]12 (stereo partly drawn)	–	–	male Sprague-Dawley rat, plasma	subcutaneous, 100 µg/kg, single dose	–	Tmax	1.33 h
C=CC(=O)Nc1cccc(Cn2ncc3cnc(Nc4cnn(CCOC)c4)nc32)c1	STK33 human	binding, KINOMEscan	–	100 nM	lower = stronger binding	percent of control	100%
CCCC[C@@H](CSS(=O)(=O)O)NCCC	Schistosoma mansoni	perfusion day 57	infected Swiss Webster mice	100 mg/kg	–	body weight	30.8 g and 32 g and 33.1 g
CNC(=O)C1CCCN(C(=O)C2CC3CCC2N3C(=O)[C@@H]2C[C@@H](O)CN2C(=O)NCc2cccc(Cl)c2F)C1 (mixture of isomers)	CYP3A4 (human)	inhibitor, time-dependent inhibition	–	5.56 µM, preincubated without NADPH, added: testosterone substrate	relative to: negative control	remaining activity	102%
N#C[C@@H]1CC(F)(F)CN1C(=O)CNC(=O)c1ccnc2c(NC(=O)CCOCCOCCOCCOCCOCCOCCNC(=O)[C@H](CCCCNC(=O)CN3CCN(CC(=O)[O-])CCN(CC(=O)[O-])CCN(CC(=O)[O-])CC3)NC(=O)CCCc3ccc(I)cc3)cccc12.[177Lu+3]	U-87 MG tumour model	–	host not given, tumour	4 h, tumour-bearing	–	tracer uptake	6.68 %ID/g
O=C1NC2(CC2)COc2ncc(F)cc2[C@H]2COCCN2c2ccn3ncc1c3n2	CHL cells	chromosomal aberration test	–	5 µg/mL, 24 h, without S9 mix	–	cells with structural aberrations	1%
CC(C)OCCOCc1ccc(OCC(O)CN(N=O)C(C)C)cc1 (stereo not drawn)	Salmonella typhimurium	Ames test	TA98	50 µg/plate, without metabolic activation	relative to: solvent control	revertant fold increase	1 fold
Cc1nn(-c2cccc(N)c2)c(=O)c2cnc(Nc3ccc(N4CCNCC4)cc3)nc12	ITK (Homo sapiens, UniProt Q08881)	enzyme activity, inhibitor	–	–	–	IC50	> 10000 nM
CCN(CC)CC#CCNc1ccnc2cc(Cl)ccc12	Salmonella typhimurium	mini-Ames test	TA1535	500.0 µg/well, with rat liver S9	–	revertants	3 revertants/well and 5 revertants/well
Cc1cc(=O)c2c(O)c3c(O[C@@H]4O[C@H](CO)[C@@H](O)[C@H](O)[C@H]4O)cc(O)cc3cc2o1	HK-2 co-cultured with HepaRG	MTT	–	33.33 µM, 48 h	relative to: untreated control	cell viability	86 ± 9.77%
